Results from different studies.
A part holds a random share of what one study measured.

Sample 1
Target: Replicase polyprotein 1ab, nsp13 helicase (rep, Severe acute respiratory syndrome coronavirus 2, UniProt P0DTD1)
Mode: inhibitor
Tested at: 20 µM
Endpoint: inhibition
CCOC(=O)C1=CCCC[C@H]1S(=O)(=O)Nc1ccc(F)cc1Cl: 9.05%
CC1(C)Oc2ccc(C#N)cc2[C@H](N(Cc2ncc[nH]2)c2ccc(Cl)cc2)[C@H]1O: 3.81%
CCCCC/C=C\C/C=C\C/C=C\C/C=C\CCCC(=O)Nc1ccc(O)cc1: -1.29%
O=C(Nc1ccc(Cl)nc1)c1ccc(Cl)cc1: 4.28%
CCc1cc2c(c(CC)n1)CCC(=O)N2Cc1ccc(-c2ccccc2-c2nn[nH]n2)cc1: 10.1%
c1ccc(N2CCN(Cc3nc4ccccc4[nH]3)CC2)nc1: -0.28%
O=S(=O)(N[C@H](CO)C(C(F)(F)F)C(F)(F)F)c1ccc(Cl)s1: 3.71%
CC(=O)N1N=C(c2ccc(N)cc2)c2cc3c(cc2C[C@H]1C)OCO3: 13.3%
CC[C@H](C)[C@H](N)C(=O)O: 5.58%
C[C@H](CCC(=O)O)[C@H]1CC[C@H]2[C@@H]3CC[C@@H]4C[C@H](O)CC[C@]4(C)[C@H]3CC[C@]12C: 0.89%
O=C(c1ccc(Cl)cc1)N(Cc1ccccc1)C1CCCCC1: 0.68%
CC(C)OC(=O)c1cc2c(OCC(O)CNC(C)(C)C)cccc2[nH]1 (centres unmarked): -3.69%
C[C@@H](O)[C@H]1C(=O)N2C(C(=O)O)=C(S[C@@H]3CN[C@H](C(=O)Nc4cccc(C(=O)O)c4)C3)[C@H](C)[C@H]12: 57%
NC(=O)c1ccc(F)c2c1C[C@@H](N(C1CCC1)C1CCC1)CO2: 5.32%
CCCN[C@H]1CCc2nc(N)sc2C1: 3.37%
CC[C@H](C)C(=O)O[C@H]1CCC=C2C=C[C@H](C)[C@H](CC[C@@H]3C[C@@H](O)CC(=O)O3)[C@H]21: 5.81%
NC[C@@H]1CC[C@@H](N)[C@@H](O[C@H]2[C@H](O)[C@@H](O[C@H]3O[C@H](CO)[C@@H](O)[C@H](N)[C@H]3O)[C@H](N)C[C@@H]2N)O1: 3.87%
C[C@H]([C@@H](O)c1ccc(O)cc1)N1CCC(Cc2ccccc2)CC1 (racemic): 4.08%
Cl/C(=C\n1cncn1)c1ccc(Cl)cc1Cl: 6%
Clc1ccccc1CNC[C@H]1CC[C@H](CNCc2ccccc2Cl)CC1: -0.91%
Cc1coc2c1C(=O)C(=O)c1c-2ccc2c1CCCC2(C)C: 3.77%
Oc1ccc([C@@H]2Oc3ccc(O)cc3[C@@H]3CCC[C@@H]32)cc1: -0.28%
N[C@H]1C[C@@H]1c1ccc(-c2cccc(O)c2)cc1: 9.09%
COCc1c(-c2ccc(NC(=O)Nc3cc(C(F)(F)F)ccc3F)c(F)c2)c2c(N)ncnn2c1CN1CCOCC1: -2.2%
CC(C)CCN1c2nc(Nc3cc(F)c(O)c(F)c3)ncc2N(C)C(=O)C1C (centres unmarked): -1.33%

Sample 2
Target: RNA binding protein fox-1 homolog 2, RRM domain, GST-SBP tag (RBFOX2, Homo sapiens, UniProt O43251-10, residues 100-194)
Method: RNA Bind-n-Seq
Form: RNA
Matrix: in vitro
Tested at: 365 nM
Notes: natural RNA segment, single round, ends assumed
Reference: no-protein control
Reading: higher = stronger binding
Endpoint: RBNS enrichment (R)
All sequences stand within: GGGAGUUCUACAGUCCGACGAUC … UGGAAUUCUCGGGUGCCAA
Construct (chain): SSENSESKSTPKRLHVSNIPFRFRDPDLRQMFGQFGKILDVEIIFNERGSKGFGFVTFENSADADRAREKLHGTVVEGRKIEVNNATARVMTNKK
UGUUCUAACCCCCACCCCCACUGCCAGGUAUGGGCCAGCAGUUUCCUGCCAGAUAUUGCCCAGCGUGAGGAGCGAUCUCAGCAGGCCUAUAAGAGUCAGCAUGGAGAGCC: 2.01
CCUCCCCCCAGUUGCCCCUCAGUCGAAGCACUGUGCCAUGUCCUGCUGGGAAUUUUCUGCCAUGCAGGCAAGACCAUCAGCACCGAGAACCCCAAACCUGUUUUGUACUU: 0.411
UUGUUUUCCAAUGAUGUGUAUUUGGGGGGAAGGGAGGAUUGCUUGUAAUCUGGUGUUGAACAACUAAGUCAGUAAUUGUCCUGUCUUUCAAACCAGUUAGCAACACAAUA: 0.527
GGAGAGUUCAAGUCUUUGUCGUUACACACUGCUGUUUUGAUUAUUGGUCUUAGUUUUGAUCCUGUUGCAGCAAAAUCCUGCAGCAUCUUUCUCUCCAAUAAUGUUGCAAC: 0.313
CAAGCGAGCACAGCUCCGUGCCAAAGCUAACUAAUUUGCUAAUCACCAUUGAUUUUUCCAAAAUGUGUUGGAGAUUUGGCUGGACAGGUUACCAUCAGAGUGGAUGUACC: 0.259

Sample 3
Target: Interferon regulatory factor 3, full length, phosphomimetic (IRF3, Homo sapiens, UniProt Q14653, residues 1-427, S386D/S396D/S398D/S402D/T404D/S405D)
Method: protein-binding microarray
Form: double-stranded DNA, one strand shown
Matrix: in vitro
Tested at: 2540 nM top
Notes: 60-bp whole probe
Added: salmon DNA 0.4 mg/ml
Reference: random background probes
Reading: higher = stronger binding
Endpoint: fitted relative affinity
All sequences stand within: GCCTAGCAC … GTCTTGATTCGCTTGACGCTGCTG
Construct (chain): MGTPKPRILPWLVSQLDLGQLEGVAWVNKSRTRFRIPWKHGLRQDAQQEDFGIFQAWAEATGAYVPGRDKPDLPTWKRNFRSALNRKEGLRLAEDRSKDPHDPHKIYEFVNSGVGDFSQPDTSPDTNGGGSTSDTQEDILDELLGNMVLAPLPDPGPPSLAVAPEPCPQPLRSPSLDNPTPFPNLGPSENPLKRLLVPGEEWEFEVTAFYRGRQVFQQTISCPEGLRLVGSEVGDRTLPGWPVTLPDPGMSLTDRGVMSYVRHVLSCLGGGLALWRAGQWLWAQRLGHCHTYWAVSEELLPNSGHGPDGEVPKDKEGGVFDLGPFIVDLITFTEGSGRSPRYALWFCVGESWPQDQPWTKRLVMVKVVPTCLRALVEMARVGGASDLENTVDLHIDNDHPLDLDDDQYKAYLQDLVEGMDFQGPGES
TTAGGATTCGACACTGGGTTAGTGCTA: -0.242 z-score
GACAGTCTCGGACTGGGGACGTGCTAG: -0.141 z-score
GACGGTCTCCTTATCCTGGCGTGCTAG: 2.81 z-score
GATGGTTTCGGACTGGGGACGTGCTAG: 4.14 z-score
TTAGGTTTCCTTTTCTTTTAGTGCTAG: 11.2 z-score
TTAGAACTCGGGTATCGATTAGTGCTA: -0.16 z-score
TCAAACTTCGGCCTCTAACTGTGCTAG: -0.431 z-score
TCATGTTTAAGAATGTTACTGTGCTAG: 0.0877 z-score

Sample 4
Cell line: HEK-293T
Read-out: pseudovirus infection
Method: FDA-approved drug library screen
Organism: VSV pseudotyped with SARS-CoV-2 spike
Tested at: 10 µM
Time: 16 h
Reference: vehicle-treated
Endpoint: GFP-positive cells
C[C@@H]1[C@H](O)[C@@H](C)/C=C/C=C/C=C/C=C/C=C/C=C/C=C/[C@H](O[C@@H]2O[C@H](C)[C@@H](O)[C@H](N)[C@@H]2O)C[C@@H]2O[C@](O)(C[C@@H](O)C[C@@H](O)[C@H](O)CC[C@@H](O)C[C@@H](O)CC(=O)O[C@H]1C)C[C@H](O)[C@H]2C(=O)O: 91.7%
CC(=O)OCC[N+](C)(C)C: 86.7%
CC1(C)C(C=C(Cl)Cl)C1C(=O)OCc1cccc(Oc2ccccc2)c1 (centres unmarked): 78.3%
CCS(=O)(=O)CCn1c([N+](=O)[O-])cnc1C: 95.6%

Sample 5
Target: Histone acetyltransferase KAT6A, both winged helices, GST fusion (KAT6A, Homo sapiens, UniProt Q92794, residues 1-181)
Method: protein binding microarray
Form: double-stranded DNA, one strand shown
Matrix: in vitro
Tested at: not given
Notes: 8-mer, flanks averaged, mean of 2 arrays, mostly near background
Reference: not given
Reading: higher = stronger binding
Endpoint: E-score
Residues (chain): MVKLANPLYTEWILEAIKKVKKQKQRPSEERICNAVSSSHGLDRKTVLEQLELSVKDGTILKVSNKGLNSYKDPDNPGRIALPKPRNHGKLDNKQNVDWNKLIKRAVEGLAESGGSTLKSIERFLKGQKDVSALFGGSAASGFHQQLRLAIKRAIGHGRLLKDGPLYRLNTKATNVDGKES
GAGTCCGC: 0.177
CCAAACGA: -0.022
ACTAGAGT: -0.0406
GACTACCC: -0.0803
ATGCCTAA: -0.2
CCAACCAA: -0.117
AGCAGTCC: -0.227
GTAATAAC: 0.037

Sample 6
Target: Replicase polyprotein 1ab, main protease (rep, Severe acute respiratory syndrome coronavirus 2, UniProt P0DTD1)
Read-out: enzyme activity
Mode: inhibitor
Tested at: 20 µM
Endpoint: inhibition
COc1ccc([N+](=O)[O-])c(S(=O)(=O)c2ccc(Cl)cc2)n1: -13.1%
C=Cc1c(C)c2cc3nc(c(CC(=O)[O-])c4[n-]c(cc5nc(cc1[n-]2)C(C)=C5CC)c(C)c4C(=O)[O-])C(CCC(=O)[O-])C3C.[Cu+2] (centres unmarked): 28.7%
CC[N+](C)(CC)CCC[n+]1c(-c2ccccc2)c2cc(N)ccc2c2ccc(N)cc21: 56%

Some of these lines once more (sample 1):
Cc1coc2c1C(=O)C(=O)c1c-2ccc2c1CCCC2(C)C: 3.77%
CCc1cc2c(c(CC)n1)CCC(=O)N2Cc1ccc(-c2ccccc2-c2nn[nH]n2)cc1: 10.1%
CCOC(=O)C1=CCCC[C@H]1S(=O)(=O)Nc1ccc(F)cc1Cl: 9.05%
CCCCC/C=C\C/C=C\C/C=C\C/C=C\CCCC(=O)Nc1ccc(O)cc1: -1.29%
NC(=O)c1ccc(F)c2c1C[C@@H](N(C1CCC1)C1CCC1)CO2: 5.32%
N[C@H]1C[C@@H]1c1ccc(-c2cccc(O)c2)cc1: 9.09%
Clc1ccccc1CNC[C@H]1CC[C@H](CNCc2ccccc2Cl)CC1: -0.91%
Cl/C(=C\n1cncn1)c1ccc(Cl)cc1Cl: 6%
